# Measured values of several laboratories.
# Each line is one published result; not all experiments were run side by side. Several values in a cell are separate wells, animals, samples, runs or records. ± marks the error that the study gave.
Compound,tested on,test,system,setting,how to read,quantity,value
CC(C)[C@H](NC(=O)[C@H](CCCNC(=N)N)NC(=O)[C@@H]1CCCN1C(=O)[C@@H](NC(=O)[C@H](C)NC(=O)[C@H](Cc1ccc(O)cc1)NC(=O)[C@H](CCC(N)=O)NC(=O)[C@H](CCCCN)NC(=O)[C@H](CCCNC(=N)N)NC(=O)[C@@H]1CCCN1C(=O)[C@H](CCC(=O)O)NC(=O)[C@@H](NC(=O)[C@H](C)N)[C@@H](C)O)[C@@H](C)O)C(=O)N[C@@H](Cc1ccccc1)C(=O)N[C@@H](Cc1c[nH]c2ccccc12)C(=O)N[C@H](C(=O)N[C@@H](CC(=O)O)C(=O)N[C@@H](C)C(=O)N1CCC[C@H]1C(=O)NCC(=O)NCCOCCOCCOCCOCCOCCOCCOCCOCCOCCOCCOCCOCCC(=O)N[C@@H](CS)C(N)=O)[C@@H](C)O,HCC1359 lung squamous carcinoma,"cell binding, phage binding, measured: output/input phage",,"10 min, 37 °C",relative to: control phage,selectivity ratio,0.8 ± 0.2
O=C1NC2(CC2)COc2ncc(F)cc2[C@H]2COCCN2c2ccn3ncc1c3n2,,,"Sprague-Dawley rat, female, spleen","oral, 20 mg/kg/day, 4 weeks dosing, end of recovery",,organ-to-body weight ratio,0.257 ± 0.019%
O=C(O)c1ccc(-c2nc(-c3ccccc3Cl)c3sccn23)cc1,K562,"megakaryocyte differentiation, flow cytometry",,"0.1 mM, 24 h",,CD61-positive cells,15.2% and 16.1%
Cc1cc(Oc2nc(N3CC[C@@H](c4ccncc4)C3)ncc2F)[nH]n1,JIMT-1,cell growth or viability,,,,IC50,89.1 µM
C#CCN1C(=O)C(CC#C)(C(=O)OCC)Oc2ccccc21 (centres unmarked),HaCaT,"cell growth or viability, CCK-8",,"50 µM, 72 h",,inhibition,0.11%
COc1ccccc1-c1ccncc1C(=O)Nc1nnc(OCc2ccc(Cl)cc2)s1,DLD-1 BRCA2-/-,,,"0.125 µM, mean of 3 replicates",relative to: untreated,colony survival,70.6%
C=CCN1C(=O)C(CC=C)(C(=O)OCC)Oc2cc(F)ccc21 (centres unmarked),L02,"cell growth or viability, CCK-8",,"25 µM, 72 h",,inhibition,0.19%
CC(C)C12OC1C1OC13C1(C)CCC4=C(COC4=O)C1CC1OC13C2OC(=O)CCC(=O)OC1OC(CO)C(O)C(O)C1O (centres unmarked),SK-MEL-1,"cell growth or viability, XTT",,47 h,,IC50,1.29 µM
CSCC[C@H](NC(=O)[C@@H](NC(=O)[C@H](CCC(N)=O)NC(=O)[C@H](CO)NC(=O)[C@@H](N)C(C)C)[C@@H](C)O)C(=O)N[C@@H](CCCNC(=N)N)C(=O)N[C@@H](CCC(N)=O)C(=O)N[C@H](C(=O)N[C@@H](C)C(=O)N[C@H](C(=O)N1CCC[C@H]1C(=O)N[C@@H](CC(C)C)C(=O)N[C@@H](CC(C)C)C(=O)N[C@@H](Cc1c[nH]c2ccccc12)C(=O)N[C@@H](Cc1ccccc1)C(=O)N[C@@H](Cc1c[nH]c2ccccc12)C(=O)N[C@H](C(=O)NCC(=O)N[C@@H](CO)C(=O)N[C@@H](CC(C)C)C(=O)NCCOCCOCCOCCOCCOCCOCCOCCOCCOCCOCCOCCOCCC(=O)N[C@@H](CS)C(N)=O)[C@@H](C)O)C(C)C)[C@@H](C)O,HCC1359 lung squamous carcinoma,"cell binding, phage binding, measured: output/input phage",,"10 min, 37 °C",relative to: control phage,selectivity ratio,2.1 ± 1.2
CCOC(=O)C1(Cc2ccccc2)Oc2cc(F)ccc2N(Cc2ccccc2)C1=O (centres unmarked),L02,"cell growth or viability, CCK-8",,"50 µM, 72 h",,inhibition,0.83%
CC(=O)NCSC[C@H](NC(=O)[C@@H]1CCCN1C(=O)[C@H](C)NC(=O)[C@@H](NC(=O)CNC(=O)[C@@H](NC(=O)[C@H](Cc1c[nH]c2ccccc12)NC(=O)[C@H](C)NC(=O)CNC(=O)[C@H](CO)NC(=O)[C@H](C)NC(=O)[C@@H]1CCCN1C(=O)[C@H](Cc1c[nH]c2ccccc12)NC(=O)[C@H](C)NC(=O)[C@H](C)NC(=O)[C@@H](N)Cc1ccc(O)cc1)[C@@H](C)O)[C@@H](C)O)C(=O)N[C@@H](CO)C(=O)N[C@@H](C)C(=O)NCC(=O)N[C@H](C(=O)NCCOCCOCCOCCOCCOCCOCCOCCOCCOCCOCCOCCOCCC(=O)N[C@@H](CS)C(N)=O)[C@@H](C)O,HCC1171 lung carcinoma,"cell binding, phage binding, measured: output/input phage",,"10 min, 37 °C",relative to: control phage,selectivity ratio,35 ± 6.9
CC(C)(C)C(=O)OCOP(=O)(OCOC(=O)C(C)(C)C)C1CCCN(O)C1=O (centres unmarked),IGROV-1,,,,,log LC50,> -4 log M
CC(C)C12OC1C1OC13C1(C)CCC4=C(COC4=O)C1CC1OC13C2OC(=O)CCCOC1OC(CO)C(O)C(O)C1O (centres unmarked),HUVEC,"cell growth or viability, XTT",,47 h,,IC50,3.98 µM
CC(C)C[C@H](NC(=O)[C@H](CC(=O)O)NC(=O)CNC(=O)[C@@H](N)CCCNC(=N)N)C(=O)N[C@@H](C)C(=O)N[C@H](C(=O)N[C@@H](CC(C)C)C(=O)N[C@@H](CCCNC(=N)N)C(=O)N[C@@H](CCC(N)=O)C(=O)N[C@@H](CC(C)C)C(=O)N[C@@H](C)C(=O)N[C@@H](CCC(N)=O)C(=O)N[C@@H](CCC(=O)O)C(=O)N[C@@H](CC(=O)O)C(=O)NCC(=O)N[C@H](C(=O)N[C@H](C(=O)NCC(=O)N[C@H](C(=O)N[C@@H](CCCNC(=N)N)C(=O)NCCOCCOCCOCCOCCOCCOCCOCCOCCOCCOCCOCCOCCC(=O)N[C@@H](CS)C(N)=O)C(C)C)C(C)C)C(C)C)[C@@H](C)O,H460 lung large cell carcinoma,"cell binding, phage binding, measured: output/input phage",,"10 min, 37 °C",relative to: control phage,selectivity ratio,2 ± 0.45

# For quick reference, copied from above:
Compound,tested on,test,system,setting,how to read,quantity,value
COc1ccccc1-c1ccncc1C(=O)Nc1nnc(OCc2ccc(Cl)cc2)s1,DLD-1 BRCA2-/-,,,"0.125 µM, mean of 3 replicates",relative to: untreated,colony survival,70.6%
O=C(O)c1ccc(-c2nc(-c3ccccc3Cl)c3sccn23)cc1,K562,"megakaryocyte differentiation, flow cytometry",,"0.1 mM, 24 h",,CD61-positive cells,15.2% and 16.1%
